Published values gathered from unrelated publications.
Every numbered part comes from another study and shows a few of its results, in no order.
Sequence of UniProt Q15375 (whole entry, looked up): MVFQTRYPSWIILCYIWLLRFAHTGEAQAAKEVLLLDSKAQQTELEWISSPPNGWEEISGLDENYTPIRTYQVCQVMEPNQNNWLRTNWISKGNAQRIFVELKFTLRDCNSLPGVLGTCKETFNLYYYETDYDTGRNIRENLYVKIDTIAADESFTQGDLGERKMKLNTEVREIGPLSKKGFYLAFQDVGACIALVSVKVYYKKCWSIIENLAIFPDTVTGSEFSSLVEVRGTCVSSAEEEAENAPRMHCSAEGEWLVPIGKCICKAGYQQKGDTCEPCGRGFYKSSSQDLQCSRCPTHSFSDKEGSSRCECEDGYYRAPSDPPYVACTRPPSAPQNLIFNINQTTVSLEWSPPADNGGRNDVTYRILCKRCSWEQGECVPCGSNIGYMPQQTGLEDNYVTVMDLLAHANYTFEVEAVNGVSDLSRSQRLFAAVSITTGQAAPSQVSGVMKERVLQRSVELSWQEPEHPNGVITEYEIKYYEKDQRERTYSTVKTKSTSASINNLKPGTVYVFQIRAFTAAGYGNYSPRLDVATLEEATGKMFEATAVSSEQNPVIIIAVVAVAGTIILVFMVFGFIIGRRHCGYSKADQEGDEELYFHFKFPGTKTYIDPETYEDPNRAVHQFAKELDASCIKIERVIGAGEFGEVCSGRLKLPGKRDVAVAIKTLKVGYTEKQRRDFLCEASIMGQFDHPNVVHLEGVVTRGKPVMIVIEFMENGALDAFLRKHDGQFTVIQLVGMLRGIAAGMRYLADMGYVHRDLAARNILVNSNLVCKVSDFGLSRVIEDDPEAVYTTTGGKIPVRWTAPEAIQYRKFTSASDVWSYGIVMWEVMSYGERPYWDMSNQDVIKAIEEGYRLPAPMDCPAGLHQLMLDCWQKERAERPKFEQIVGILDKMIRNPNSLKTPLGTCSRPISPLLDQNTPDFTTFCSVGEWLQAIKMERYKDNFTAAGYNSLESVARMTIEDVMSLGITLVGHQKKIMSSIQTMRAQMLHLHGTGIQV
Sequence of UniProt Q15759 (whole entry, looked up): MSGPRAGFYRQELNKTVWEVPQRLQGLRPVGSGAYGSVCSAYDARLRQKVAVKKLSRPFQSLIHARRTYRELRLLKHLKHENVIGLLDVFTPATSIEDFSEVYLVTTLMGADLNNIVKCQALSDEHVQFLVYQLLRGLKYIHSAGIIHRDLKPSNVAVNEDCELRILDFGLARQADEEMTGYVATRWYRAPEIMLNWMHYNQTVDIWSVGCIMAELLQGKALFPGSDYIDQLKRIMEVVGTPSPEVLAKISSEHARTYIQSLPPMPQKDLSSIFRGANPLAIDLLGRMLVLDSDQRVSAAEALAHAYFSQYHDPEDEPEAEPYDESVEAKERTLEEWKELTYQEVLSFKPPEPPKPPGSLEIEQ
Sequence of UniProt Q8N752 (whole entry, looked up): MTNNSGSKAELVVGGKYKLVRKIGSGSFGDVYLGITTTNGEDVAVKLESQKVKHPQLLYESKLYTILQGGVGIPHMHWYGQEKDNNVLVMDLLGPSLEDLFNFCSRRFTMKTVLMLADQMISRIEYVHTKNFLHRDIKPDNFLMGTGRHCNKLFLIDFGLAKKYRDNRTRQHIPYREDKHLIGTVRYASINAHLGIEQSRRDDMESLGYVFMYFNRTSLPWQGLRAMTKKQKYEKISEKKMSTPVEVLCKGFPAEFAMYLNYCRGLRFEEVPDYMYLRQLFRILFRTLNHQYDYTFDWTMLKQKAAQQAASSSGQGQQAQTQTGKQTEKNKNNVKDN
Sequence of UniProt O15111 (whole entry, looked up): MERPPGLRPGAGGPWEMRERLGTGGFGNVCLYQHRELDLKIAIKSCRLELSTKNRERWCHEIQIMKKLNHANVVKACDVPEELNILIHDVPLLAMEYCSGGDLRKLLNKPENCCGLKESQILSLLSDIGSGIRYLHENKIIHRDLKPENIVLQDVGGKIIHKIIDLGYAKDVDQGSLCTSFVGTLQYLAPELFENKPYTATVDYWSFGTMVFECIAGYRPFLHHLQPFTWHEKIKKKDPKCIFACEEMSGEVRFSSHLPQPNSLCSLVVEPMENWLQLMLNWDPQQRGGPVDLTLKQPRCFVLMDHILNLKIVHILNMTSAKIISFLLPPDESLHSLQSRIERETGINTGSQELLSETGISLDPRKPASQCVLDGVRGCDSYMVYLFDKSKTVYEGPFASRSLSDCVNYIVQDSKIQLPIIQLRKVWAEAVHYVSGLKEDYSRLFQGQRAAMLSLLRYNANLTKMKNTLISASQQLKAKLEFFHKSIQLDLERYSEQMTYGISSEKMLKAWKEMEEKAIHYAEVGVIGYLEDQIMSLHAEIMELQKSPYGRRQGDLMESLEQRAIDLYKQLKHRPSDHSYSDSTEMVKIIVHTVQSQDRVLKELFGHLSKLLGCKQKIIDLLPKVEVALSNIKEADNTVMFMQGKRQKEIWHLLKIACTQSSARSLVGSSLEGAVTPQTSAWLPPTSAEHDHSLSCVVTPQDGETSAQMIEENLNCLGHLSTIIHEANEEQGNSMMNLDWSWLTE
Sequence of UniProt P48730 (whole entry, looked up): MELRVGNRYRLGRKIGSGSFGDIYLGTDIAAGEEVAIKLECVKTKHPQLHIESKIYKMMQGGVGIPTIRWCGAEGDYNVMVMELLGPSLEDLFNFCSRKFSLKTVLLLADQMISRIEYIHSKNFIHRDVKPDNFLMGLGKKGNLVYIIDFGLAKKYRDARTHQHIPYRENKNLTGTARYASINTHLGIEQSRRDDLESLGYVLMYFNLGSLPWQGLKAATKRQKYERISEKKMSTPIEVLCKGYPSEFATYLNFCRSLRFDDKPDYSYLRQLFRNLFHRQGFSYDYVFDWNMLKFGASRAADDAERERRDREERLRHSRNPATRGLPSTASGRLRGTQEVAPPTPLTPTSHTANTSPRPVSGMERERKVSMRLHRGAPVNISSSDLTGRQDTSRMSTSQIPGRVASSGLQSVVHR
Sequence of UniProt Q9Y5S2 (whole entry, looked up): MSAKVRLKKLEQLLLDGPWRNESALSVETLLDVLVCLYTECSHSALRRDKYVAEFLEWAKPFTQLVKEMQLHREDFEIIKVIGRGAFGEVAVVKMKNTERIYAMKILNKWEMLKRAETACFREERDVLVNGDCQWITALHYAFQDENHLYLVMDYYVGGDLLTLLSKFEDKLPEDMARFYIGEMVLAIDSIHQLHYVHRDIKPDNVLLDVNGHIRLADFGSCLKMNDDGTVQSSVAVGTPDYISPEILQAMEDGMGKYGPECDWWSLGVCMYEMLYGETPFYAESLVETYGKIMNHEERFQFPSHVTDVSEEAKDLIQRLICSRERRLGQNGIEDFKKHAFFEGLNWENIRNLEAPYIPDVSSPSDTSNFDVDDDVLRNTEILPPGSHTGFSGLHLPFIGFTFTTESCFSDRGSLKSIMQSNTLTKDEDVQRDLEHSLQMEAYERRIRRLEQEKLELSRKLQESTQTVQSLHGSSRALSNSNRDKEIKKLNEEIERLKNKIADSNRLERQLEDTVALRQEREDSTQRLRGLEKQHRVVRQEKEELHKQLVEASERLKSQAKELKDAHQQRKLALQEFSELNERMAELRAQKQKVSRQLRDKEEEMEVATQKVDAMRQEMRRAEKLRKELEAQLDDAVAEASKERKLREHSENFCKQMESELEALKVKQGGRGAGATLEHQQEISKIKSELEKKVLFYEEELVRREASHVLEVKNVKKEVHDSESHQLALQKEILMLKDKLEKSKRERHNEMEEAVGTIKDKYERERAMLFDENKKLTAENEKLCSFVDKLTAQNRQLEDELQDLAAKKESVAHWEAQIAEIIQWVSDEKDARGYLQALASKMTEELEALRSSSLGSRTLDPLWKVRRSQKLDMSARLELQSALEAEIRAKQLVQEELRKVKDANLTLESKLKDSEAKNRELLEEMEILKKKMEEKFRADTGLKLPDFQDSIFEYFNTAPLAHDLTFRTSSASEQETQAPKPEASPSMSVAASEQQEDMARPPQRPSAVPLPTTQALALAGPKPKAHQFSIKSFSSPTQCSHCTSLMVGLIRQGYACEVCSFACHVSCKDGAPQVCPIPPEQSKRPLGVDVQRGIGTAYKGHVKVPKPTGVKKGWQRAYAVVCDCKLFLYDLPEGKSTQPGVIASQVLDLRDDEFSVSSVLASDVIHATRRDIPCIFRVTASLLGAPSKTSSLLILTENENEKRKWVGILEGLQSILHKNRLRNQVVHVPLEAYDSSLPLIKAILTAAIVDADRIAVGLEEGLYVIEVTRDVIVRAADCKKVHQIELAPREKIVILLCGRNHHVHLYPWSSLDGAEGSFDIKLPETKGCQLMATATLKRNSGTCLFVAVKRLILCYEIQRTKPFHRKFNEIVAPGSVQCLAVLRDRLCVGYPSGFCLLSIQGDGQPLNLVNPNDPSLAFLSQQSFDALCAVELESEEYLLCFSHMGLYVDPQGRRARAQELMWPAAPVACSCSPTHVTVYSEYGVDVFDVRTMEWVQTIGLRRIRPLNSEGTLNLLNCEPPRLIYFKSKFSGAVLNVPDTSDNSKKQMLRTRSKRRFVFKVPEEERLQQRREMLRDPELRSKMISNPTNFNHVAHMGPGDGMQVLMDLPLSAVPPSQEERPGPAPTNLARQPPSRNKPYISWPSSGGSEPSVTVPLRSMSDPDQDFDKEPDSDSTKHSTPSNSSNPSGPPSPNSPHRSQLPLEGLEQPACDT
Sequence of UniProt Q9BWU1 (whole entry, looked up): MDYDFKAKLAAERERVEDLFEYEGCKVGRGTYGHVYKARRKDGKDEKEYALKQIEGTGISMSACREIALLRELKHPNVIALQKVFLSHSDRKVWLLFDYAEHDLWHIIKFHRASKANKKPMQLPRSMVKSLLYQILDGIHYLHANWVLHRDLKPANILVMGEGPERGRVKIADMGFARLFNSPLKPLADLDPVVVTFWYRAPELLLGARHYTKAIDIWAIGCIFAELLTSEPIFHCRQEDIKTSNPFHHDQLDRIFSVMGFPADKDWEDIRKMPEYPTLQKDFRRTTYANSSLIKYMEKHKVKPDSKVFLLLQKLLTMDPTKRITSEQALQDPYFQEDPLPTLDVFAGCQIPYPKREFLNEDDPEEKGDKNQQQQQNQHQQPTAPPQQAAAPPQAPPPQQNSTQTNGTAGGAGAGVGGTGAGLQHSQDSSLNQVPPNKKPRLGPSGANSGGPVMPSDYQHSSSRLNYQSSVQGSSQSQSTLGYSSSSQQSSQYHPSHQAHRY

Sample 1 — cell line: A-375; concentration: 100 µM; time: 18 h
Compound | viability
CC1(C)CCC(CN2CCN(c3ccc(C(=O)NS(=O)(=O)c4ccc(NCC5CCOCC5)c([N+](=O)[O-])c4)c(Oc4cnc5[nH]ccc5c4)c3)CC2)=C(c2ccc(Cl)cc2)C1 | 45.3%
CN1CCC[C@@H]1Cc1c[nH]c2ccc(CCS(=O)(=O)c3ccccc3)cc12 | 93.8%
O=C(CCCl)NCc1ccccc1 | 95.4%
Nc1c2ccccc2nc2ccccc12 | 20.8%
CN1CCC(=C2c3ccccc3CCc3cccnc32)CC1 | 85.8%
CC(C)N1CCN(c2ccc(OC[C@H]3CO[C@](Cn4cncn4)(c4ccc(Cl)cc4Cl)O3)cc2)CC1 (racemic) | 10.1%
NCCCC[C@H](NC(=O)[C@@H]1CCCN1C(=O)[C@@H]1CSSC[C@H](N)C(=O)N[C@@H](Cc2ccccc2)C(=O)N[C@@H](Cc2ccccc2)C(=O)N[C@@H](CCC(N)=O)C(=O)N[C@@H](CC(N)=O)C(=O)N1)C(=O)NCC(N)=O | 89.3%

Sample 2 — observed: enzyme activity; mode: inhibitor; concentration: 0.5 µM; relative to: control
Target: Lymphokine-activated killer T-cell-originated protein kinase (PBK, Homo sapiens, UniProt Q96KB5)
Target sequence (Q96KB5 1-322): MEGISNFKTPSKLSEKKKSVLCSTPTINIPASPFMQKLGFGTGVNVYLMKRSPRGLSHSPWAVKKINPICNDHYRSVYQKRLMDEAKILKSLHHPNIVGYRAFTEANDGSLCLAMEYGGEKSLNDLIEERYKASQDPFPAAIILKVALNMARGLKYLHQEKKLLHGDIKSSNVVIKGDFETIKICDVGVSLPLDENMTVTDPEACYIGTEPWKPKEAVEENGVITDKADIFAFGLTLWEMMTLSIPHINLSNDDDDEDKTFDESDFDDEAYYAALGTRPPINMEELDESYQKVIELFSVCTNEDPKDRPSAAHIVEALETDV
Compound | remaining activity [%]
Cc1ccc(NC(=O)c2ccc(CN3CCN(C)CC3)cc2)cc1Nc1nc(-c2cccnc2)cs1 | 99.6
OCC(O)CCON=C1C(c2c(O)[nH]c3ccccc23)=Nc2ccccc21 (stereo not drawn) | 80.6
O=C(CCCc1ccc(-c2ccccc2F)cc1)Nc1ccc(O)cc1 | 90.8
Cc1ccc(Nc2nccc(N(C)c3ccc4c(C)n(C)nc4c3)n2)cc1S(N)(=O)=O | 101
N#CC(C#N)=C(N)/C(C#N)=C/c1ccc(O)cc1 | 96.4
Cn1c2ccccc2c2c3c(c4c5ccccc5n(CCC#N)c4c21)CNC3=O | 84.2
COc1ccc(CNC(=O)Nc2ncc([N+](=O)[O-])s2)cc1 | 110
CCOC(=O)c1c(C)[nH]c(/C=C2\C(=O)Nc3ccccc32)c1C | 85
COc1ccc(OC)c2c(=S)c3ccccc3[nH]c12 | 107
CO[C@H]1C[C@@H]2CC[C@@H](C)[C@@](O)(O2)C(=O)C(=O)N2CCCC[C@H]2C(=O)O[C@H]([C@H](C)C[C@@H]2CC[C@@H](O)[C@H](OC)C2)CC(=O)[C@H](C)/C=C(\C)[C@@H](O)[C@@H](OC)C(=O)[C@H](C)C[C@H](C)/C=C/C=C/C=C/1C | 103
Cn1sc(=O)n(Cc2ccccc2)c1=O | 107
COc1cc2nccc(Oc3ccc(NC(=S)NC(=O)c4ccccc4C)cc3)c2cc1OC | 81.3
Nc1ncnc2n[nH]c(Nc3ccc(F)cc3)c12 | 87.6
C#Cc1cccc(Nc2ncnc3cc(OCCOC)c(OCCOC)cc23)c1 | 104
Nc1[nH]nc2nc3ccccc3nc12 | 106
Nc1ccc2ncnc(NCCc3ccc(Oc4ccccc4)cc3)c2c1 | 98.2

Sample 3 — concentration: 1 µM
SMILES: CC1=C(C#N)[C@@H](c2ccc3[nH]nc(C)c3c2)C(C#N)=C(c2ccc(Cl)cc2)N1
target | assay | remaining binding [%]
SBK1 (Homo sapiens, UniProt Q52WX2) | cell-free assay, competition with immobilised ligand | 100
CDC42BPB (Homo sapiens, UniProt Q9Y5S2) | cell-free assay, competition with immobilised ligand | 100
EPHA8 (Homo sapiens, UniProt P29322) | cell-free assay, competition with immobilised ligand | 100
Ribosomal protein S6 kinase alpha-6, C-terminal kinase domain (RPS6KA6, Homo sapiens, UniProt Q9UK32) | cell-free assay, competition with immobilised ligand | 77.4
STK36 (Homo sapiens, UniProt Q9NRP7) | cell-free assay, competition with immobilised ligand | 95.9
MAP3K4 (Homo sapiens, UniProt Q9Y6R4) | cell-free assay, competition with immobilised ligand | 67.9
GSK3B (Homo sapiens, UniProt P49841) | cell-free assay, competition with immobilised ligand | 69.6
Ribosomal protein S6 kinase alpha-4, N-terminal kinase domain (RPS6KA4, Homo sapiens, UniProt O75676) | cell-free assay, competition with immobilised ligand | 81.4
EGFR (Homo sapiens, UniProt P00533, del747-750/T751S) | cell-free assay, competition with immobilised ligand | 100
CHUK (Homo sapiens, UniProt O15111) | cell-free assay, competition with immobilised ligand | 100
CSNK1A1L (Homo sapiens, UniProt Q8N752) | cell-free assay, competition with immobilised ligand | 100
TTK (Homo sapiens, UniProt P33981) | cell-free assay, competition with immobilised ligand | 75.7
PRKD3 (Homo sapiens, UniProt O94806) | cell-free assay, competition with immobilised ligand | 100
CDK19 (Homo sapiens, UniProt Q9BWU1) | competition binding | 66.8
MAPK11 (Homo sapiens, UniProt Q15759) | cell-free assay, competition with immobilised ligand | 99.8
EPHA7 (Homo sapiens, UniProt Q15375) | cell-free assay, competition with immobilised ligand | 91.2
ERN1 (Homo sapiens, UniProt O75460) | cell-free assay, competition with immobilised ligand | 100
AKT2 (Homo sapiens, UniProt P31751) | cell-free assay, competition with immobilised ligand | 100
CSNK1D (Homo sapiens, UniProt P48730) | cell-free assay, competition with immobilised ligand | 100

Sample 4 — species: human; medium: microsomes or S9; concentration: 2 µM; time: 0.5 h
Structure (SMILES) | remaining compound [%]
COc1ccc(/C=C/c2nc(S(=O)(=O)c3ccccc3)c(N(C)C)o2)cc1 | 5.85
COC(=O)C12CCC(=O)N1CCc1c2n(C(=O)OC(C)(C)C)c2ccccc12 (stereo not drawn) | 79.6
Cc1ccc(-n2nc(C)c(NCc3cnn(C)c3)c2C)cc1 | 71.1
CC1(C)OC2CC(=O)OCC23C1CC(=O)C1(C)C3CC[C@@]2(C)[C@H](c3ccoc3)OC(=O)C3OC312 (stereo partly drawn) | 91.2
CCC(=O)N(CCC1(c2ccccc2)CCOC(C)(C)C1)CC1CCOC(C)(C)C1 (stereo not drawn) | 1.9
CC(C)c1cc(C(=O)N2C[C@@H]3CC[C@H](C2)N(C)C3=O)c(O)c(C(C)C)c1 | > 100
CC(C)[C@H](NC(=O)c1ccc2nc(-c3ccc(NC(=O)NCc4ccccc4)cc3)cn2c1)C(=O)O | 49.1
Cc1c(-c2cc(Cn3ccnc3C(C)C)on2)cnn1C | 94
Cc1ccc(C(=O)C2=CN(c3cc(Cl)cc(Cl)c3)c3cc(F)ccc3S2(=O)=O)c(C)c1 | 2.05

Excerpt of the above (sample 4):
Structure (SMILES) | remaining compound [%]
Cc1c(-c2cc(Cn3ccnc3C(C)C)on2)cnn1C | 94
COc1ccc(/C=C/c2nc(S(=O)(=O)c3ccccc3)c(N(C)C)o2)cc1 | 5.85
COC(=O)C12CCC(=O)N1CCc1c2n(C(=O)OC(C)(C)C)c2ccccc12 (stereo not drawn) | 79.6
Cc1ccc(C(=O)C2=CN(c3cc(Cl)cc(Cl)c3)c3cc(F)ccc3S2(=O)=O)c(C)c1 | 2.05
CC(C)[C@H](NC(=O)c1ccc2nc(-c3ccc(NC(=O)NCc4ccccc4)cc3)cn2c1)C(=O)O | 49.1
CC1(C)OC2CC(=O)OCC23C1CC(=O)C1(C)C3CC[C@@]2(C)[C@H](c3ccoc3)OC(=O)C3OC312 (stereo partly drawn) | 91.2
CCC(=O)N(CCC1(c2ccccc2)CCOC(C)(C)C1)CC1CCOC(C)(C)C1 (stereo not drawn) | 1.9
